Published values collected from several papers.
Parts stem from different laboratories: compare values within a part only. Positions count from the first letter of the parent shown.

Sample 1
Target: DBP, bZIP domain (human)
Technique: DHFR protein complementation
Matrix: yeast
Notes: single substitutions, most at no-binding floor
Relative to: wild-type JUN-FOS pair
Direction: higher = stronger binding
Endpoint: binding fitness
Parent: JUN, bZIP domain (human); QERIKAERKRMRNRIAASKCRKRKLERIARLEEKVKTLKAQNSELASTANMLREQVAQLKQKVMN; partner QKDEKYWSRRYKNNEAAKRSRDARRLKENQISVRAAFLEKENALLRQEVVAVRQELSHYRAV
E33C: -1.39 natural log
S47Y: -1.24 natural log
E33M: -1.61 natural log
E44G: -1.45 natural log
L45W: -1.37 natural log
A46K: -1.49 natural log
Q58P: -1.41 natural log
R30V: -1.38 natural log

Sample 2
Target: Prothrombin, mature alpha-thrombin (F2, Homo sapiens, UniProt P00734)
Technique: aptamer microarray, sandwich
Molecule type: DNA with 2'F-ANA
Matrix: in vitro
Tested at: 200 nM
Notes: whole 15-mer aptamer, many near background
Added: Cy3 exosite-II aptamer, 400 nM
Direction: higher = stronger binding
Endpoint: mean fluorescence intensity
Oligonucleotide: GGTTGGTGTGGTTGG
2'F-ANA at 1 2 3 4 5 6 7 10: 49.5 a.u.
2'F-ANA at 1 2 3 4 6 7 9 12 13 15: 174 a.u.
2'F-ANA at 1 2 3 4 6 7 8 10 14 15: 52.2 a.u.
2'F-ANA at 2 4 5 6 8 10 12 13 14: 46.7 a.u.
2'F-ANA at 1 2 4 5 6 7 10 12 15: 54.2 a.u.
2'F-ANA at 1 4 8 10 12 13 14: 46.1 a.u.
2'F-ANA at 1 3 4 5 7 10 11 14: 44.8 a.u.
2'F-ANA at 1 2 3 4 6 10 12: 75.4 a.u.

Sample 3
Target: CCNA1, cyclin fold, Cln2 fusion (human)
Technique: yeast growth competition, sequencing
Matrix: yeast
Notes: weak parent motif
Relative to: not given
Direction: higher = stronger binding
Endpoint: normalised enrichment score
Parent: viral docking peptide; KGVKRKLFAEDSS
F8D: -0.302
V3P: 0.805
A9V: 1.25
K4A: 0.806
E10R: 0.0668
G2A: 0.652
G2W: 0.579
S12R: 0.82
L7R: 0.568
K6C: 1.15
R5T: 0.224
E10M: 0.829
S12L: 1.28
G2K: 1.49
A9M: 1.06
G2R: 1.26
F8M: 0.126

Further values, each from its own experiment
Technique: cross-linking MS
DR1 (Homo sapiens, UniProt Q01658)
interaction screen (DRAP1 (Homo sapiens, UniProt Q14919); hits only): cross-linked

FKBP3 (Homo sapiens, UniProt Q00688)
cross-linked residues (GAREM1 (Homo sapiens, UniProt Q9H706); cell fractions; added: DSSO): K48 to S471

COX5B (Homo sapiens, UniProt P10606)
cross-linked residues (COA3 (Homo sapiens, UniProt Q9Y2R0); cell fractions; added: DSSO): K57 to K48

TCAF2 (Homo sapiens, UniProt A6NFQ2)
cross-linked residues (CSDE1 (Homo sapiens, UniProt O75534); cell fractions; added: DSSO): T594 to K239

Some of these lines once more (sample 3):
L7R: 0.568
G2K: 1.49
A9M: 1.06
R5T: 0.224
G2R: 1.26
F8M: 0.126
